Measured values pooled from the literature.
Lines come from different studies, so protocols differ. Values joined by “and” are separate records of one study, mostly repeats; a detail may differ. Numbers after ± are the reported error.
Sequence of UniProt P52564 (whole entry, looked up): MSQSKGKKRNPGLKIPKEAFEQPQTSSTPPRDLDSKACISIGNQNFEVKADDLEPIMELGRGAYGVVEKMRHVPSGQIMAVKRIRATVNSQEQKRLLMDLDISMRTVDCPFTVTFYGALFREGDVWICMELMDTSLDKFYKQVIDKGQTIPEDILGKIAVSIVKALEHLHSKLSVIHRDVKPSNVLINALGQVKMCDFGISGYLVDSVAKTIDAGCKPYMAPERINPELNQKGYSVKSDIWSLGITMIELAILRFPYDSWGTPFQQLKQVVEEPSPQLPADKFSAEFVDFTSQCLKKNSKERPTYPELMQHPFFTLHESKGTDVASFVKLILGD
Sequence of UniProt Q8N884 (whole entry, looked up): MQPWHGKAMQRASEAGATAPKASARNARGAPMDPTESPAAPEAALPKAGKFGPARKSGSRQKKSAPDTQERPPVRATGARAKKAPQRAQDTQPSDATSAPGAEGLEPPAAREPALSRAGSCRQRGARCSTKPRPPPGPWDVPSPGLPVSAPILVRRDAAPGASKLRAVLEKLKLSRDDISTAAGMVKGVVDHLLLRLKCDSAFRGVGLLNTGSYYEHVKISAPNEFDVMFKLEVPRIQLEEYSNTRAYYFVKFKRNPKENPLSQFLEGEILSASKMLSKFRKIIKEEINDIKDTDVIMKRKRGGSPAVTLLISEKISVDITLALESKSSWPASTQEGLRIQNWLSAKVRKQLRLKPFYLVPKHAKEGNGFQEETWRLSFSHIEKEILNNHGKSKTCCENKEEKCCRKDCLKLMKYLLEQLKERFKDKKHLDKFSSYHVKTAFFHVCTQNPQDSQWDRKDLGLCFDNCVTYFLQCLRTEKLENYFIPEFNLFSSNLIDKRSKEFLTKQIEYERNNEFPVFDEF
Sequence of UniProt P08684 (whole entry, looked up): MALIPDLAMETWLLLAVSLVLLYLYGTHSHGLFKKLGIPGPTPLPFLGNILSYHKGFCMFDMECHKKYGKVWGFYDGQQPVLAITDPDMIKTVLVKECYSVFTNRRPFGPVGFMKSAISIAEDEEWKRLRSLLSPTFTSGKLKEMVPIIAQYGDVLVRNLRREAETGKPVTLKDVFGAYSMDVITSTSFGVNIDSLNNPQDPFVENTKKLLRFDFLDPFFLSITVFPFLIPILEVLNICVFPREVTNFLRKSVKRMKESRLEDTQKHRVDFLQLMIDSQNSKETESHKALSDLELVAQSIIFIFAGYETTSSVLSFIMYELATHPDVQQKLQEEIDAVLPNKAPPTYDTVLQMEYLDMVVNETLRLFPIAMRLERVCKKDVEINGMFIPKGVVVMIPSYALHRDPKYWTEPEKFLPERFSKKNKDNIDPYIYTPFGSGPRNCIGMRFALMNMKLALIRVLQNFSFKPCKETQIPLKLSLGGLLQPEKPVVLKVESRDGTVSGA

CC(=O)O[C@H]1C(=O)[C@@]2(C)[C@H]([C@H](OC(=O)c3ccccc3)[C@]3(O)C[C@H](OC(=O)[C@H](O)[C@@H](NC(=O)c4ccccc4)c4ccccc4)C(C)=C1C3(C)C)[C@]1(OC(C)=O)CO[C@@H]1C[C@@H]2O — adverse event incidence (refers to: peripheral oedema; patients with advanced solid tumours; intravenous, dose not given, grade 1 and 2, possibly related to drug): 11%
COCCC(=O)Nc1ccc(C2CCCCC2)cc1 — hepatic clearance (liver microsome stability; dog liver microsomes; 1 µM): 29 mL/min/kg
COc1ccnc(C(=O)NC(CO)C(=O)O)c1O (racemic) — KFoc (soil adsorption; clay soil; pH 7.6, organic carbon 1.7 %): 358 mL/g
CCN1/C(=C/C(C)=O)Sc2ccc(F)cc21 — PR interval (cynomolgus monkey; oral, 100 mg/kg, 1 h post-dose): 88 ± 4 ms
O=C(Nc1cnccc1Cl)N1CCN(Cc2ccc3c(c2)OC(F)(F)O3)CC1 — adverse event incidence (refers to: Somnolence; human healthy young men; 75 mg, multiple dose): 33.3%
N#Cc1ccc2c(c1)[C@H]1CCCN(C(=O)c3ccc4[nH]cnc4c3)[C@H]1C2 — pre-dose plasma concentration (human, plasma; 80 mg once daily, day 28): 1740 nmol/L
N#CCNC(=O)c1ccc(-c2ccnc(Nc3ccc(N4CCOCC4)cc3)n2)cc1 — AUCinf ratio (healthy human volunteers, plasma; oral, dose not given, together with: single-dose rifampin; baseline: compound alone): 157%
CCOc1c([C@H](C)n2nc(C)c3c(N)ncnc32)cc(Cl)c(F)c1[C@@H]1CNC(=O)C1 — ECG observations (refers to: QRS ≤100 ms; previously treated B-cell malignancy; oral, 10 mg once daily, baseline below thresholds): 100%
OC[C@H]1O[C@@H](c2ccc(F)c(Cc3cc4ccccc4s3)c2)[C@H](O)[C@@H](O)[C@@H]1O — hypoglycaemia-related adverse event (Japanese patients, type 1 diabetes; oral, 50 mg/day, onset day 7; baseline: patients): 3%
COc1cccc2c1C(=O)c1c(O)c3c(c(O)c1C2=O)C[C@@](O)(C(=O)CO)C[C@@H]3O[C@H]1C[C@H](NC(=O)[C@@H]2CCCN2C(=O)CNC(=O)[C@@H](N)CC(C)C)[C@H](O)[C@H](C)O1 — AUC (healthy mouse, plasma; intravenous, 94.4 mg/kg PhAc-ALGP-Dox): 0.37 µM·h
Cc1cc(Nc2ccc(S(F)(F)(F)(F)F)cc2)n2nc(C(C)(F)F)nc2n1 — patients with QTcB increase (Plasmodium vivax; 12-lead ECG; malaria patients; oral, 400 mg, increase above 60 ms): 0%
CCN1CCN(Cc2ccc(Nc3ncc(F)c(-c4cc(F)c5nc6n(c5c4)[C@H](C)CCC6)n3)nc2)CC1 — CL/F (human, plasma; 200 mg single dose, mean): 32.3 L/h
COc1ccc2c(c1)CN(C(=O)CCN1CCC(Cc3ccccc3)CC1)CC[S@@+]2[O-] — PQ interval (telemetry; conscious male beagle dogs; intravenous, 4 mg/kg, 0.5 h): 82 ± 6 ms
C=CC(=O)NC1CCN(c2ncc3ncnc(Nc4ccc(Oc5ccc6c(c5)ncn6C)c(C)c4)c3n2)CC1 — AUC(0-tz) (human, male, plasma; oral, 30 mg single dose, fasted, geometric mean): 5.68 µM·h
CN(C)N=Nc1[nH]cnc1C(N)=O — AUC(0-8h) (human patients, plasma; intravenous, 1000 mg/m^2 over 1 h, cycle 1 day 1, given alone): 96400 ng·h/mL
CN1C(=O)[C@@H](NC(=O)c2nnc(Cc3ccccc3)[nH]2)COc2cccnc21 — TEAE leading to permanent discontinuation (phase I single ascending dose; human, male and female; oral, 100 mg, fasted): 0%
Cc1ccc(C(=O)N(CCCN)C(c2nc3snc(C)c3c(=O)n2Cc2ccccc2)C(C)C)cc1 (centres unmarked) — patients with adverse event (mucosal inflammation grade ≥3 (CTCAE); human patients; intravenous, 18 mg/day): 0%
CCn1c(=O)c(-c2cc(NC(=O)Nc3ccccc3)c(F)cc2Br)cc2cnc(NC)cc21 — participants with drug-related TEAE (refers to: gastrointestinal disorders; human, mild hepatic impairment; oral, 50 mg single dose): 37.5%
CN1CCN(c2cccc3c2CCN(C(=O)/C=C/c2c(-n4cnnn4)ccc(Cl)c2F)[C@@H]3C(=O)Nc2ccc(C(=O)O)cc2)C(=O)C1 — subjects with infusion site pain (healthy human subjects; intravenous infusion, 9 mg/h, 5 days): 0%
C=CC(=O)Nc1cc(Nc2nccc(-c3cn(C4CC4)c4ccccc34)n2)c(OC)cc1N(C)CCN(C)C — relative error (freeze-thaw stability; rat plasma; 40 ng/mL, three freeze-thaw cycles; baseline: nominal concentration): -7.9%
CSCC[C@H](NC(=O)[C@H](CCCCN)NC(=O)[C@H](CCCNC(=N)N)NC(=O)[C@H](CO)NC(=O)[C@H](Cc1c[nH]c2ccccc12)NC(=O)[C@H](CCCNC(=N)N)NC(=O)[C@@H](CC(C)C)NC(=O)[C@@H](N)CCSC)C(=O)N1CCC[C@H]1C(=O)N[C@@H](CS)C(=O)N[C@H](C(=O)N[C@@H](CO)C(N)=O)C(C)C — remaining activity (12G5 competition, SUP-T1 cells; human plasma; 20 µM, 2 h, 37 °C): 92 ± 21%
N#Cc1ccc2c(c1)[C@H]1CCCN(C(=O)c3ccc4[nH]cnc4c3)[C@H]1C2 — DHEA-S level (human, male; 40 mg, day 15): 4.5 µmol/L
COc1ccnc(C(=O)NCC(=O)O)c1O — KFoc (soil adsorption; soil; pH 6.9, organic carbon 0.8 %): 885 mL/g
CC(C)(C(=O)N1CCOc2c(C#N)cncc2C1)C(F)F — subjects with adverse event (refers to: back pain; human; oral, 10 mg, CSF pharmacokinetic cohort): 16.7%
CC[C@H]1[C@@H](O)[C@@H]2[C@H](CC[C@]3(C)[C@@H]([C@H](C)CCNC(=O)NS(=O)(=O)c4ccc(C(C)(C)C)cc4)CC[C@@H]23)[C@@]2(C)CC[C@@H](O)C[C@@H]12 — Cmax geometric mean (Cytochrome P450 3A4 (CYP3A4, Homo sapiens, UniProt P08684); substrate; human, plasma; 10 mg, alone, study day 1): 31.2 ng/mL
Cn1cc(-c2ccc(-c3cncc(Cl)c3N3CCC4(CCNC4=O)CC3)cc2)cn1 — log2 fold change (COLO 205; gene expression, microarray, refers to: CTSB mRNA; concentration not given, 2 h; baseline: untreated cells): 2.14
O=C(Nc1nc2cccc(-c3ccc(CN4CCS(=O)(=O)CC4)cc3)n2n1)C1CC1 — treatment-emergent adverse events (refers to: somnolence; rheumatoid arthritis patients; oral, 300 mg once daily, 4 weeks, any relatedness): 0%
Cc1nn(-c2nc3ccccc3[nH]2)c(O)c1C(c1ccccn1)c1c(C)nn(-c2nc3ccccc3[nH]2)c1O — EC50 (Cyclic GMP-AMP synthase, catalytic domain; with DNA (CGAS, Homo sapiens, UniProt Q8N884); liquid-liquid phase separation, inhibitor): 8.67 µM
FC(F)(F)CN1CC(n2cc(Oc3ccn4nc(Cl)cc4n3)cn2)C1 — day of premature euthanasia (Crl:CD(SD) rat, male; oral, 450 mg/kg/day, 14-day repeat-dose toxicology): 4 days
COC(=O)N[C@@H](C)CNc1nccc(-c2cn(C(C)C)nc2-c2cc(Cl)cc(NS(C)(=O)=O)c2F)n1 — AUCinf increase (human, plasma; oral, 50 mg, single dose, geometric mean, together with: posaconazole; baseline: compound alone): ~183% and ~180% and 183%
Cc1nc(-c2ccc(OCC(C)C)c(C#N)c2)sc1C(=O)O — subjects with serious adverse events (healthy Chinese subjects, fasted; oral, 40 mg single dose): 0%
C[C@@H](c1ncncc1F)[C@](O)(Cn1cncn1)c1ccc(F)cc1F — drug-related TEAE incidence (refers to: Photopsia; human; oral, 200 mg): 0%
CC(C(=O)Nc1ccc(C2CCCCC2)cc1)n1cncn1 (centres unmarked) — hepatic clearance (cryopreserved rat hepatocytes; 1 µM): 39 mL/min/kg
CC(C)C[C@@H]1NC(=O)CN(C)C(=O)[C@H](Cc2ccccc2)NCC2=CC=C(CNC1=O)O2 — -log Pe (PAMPA; 2% lecithin in dodecane; 100 µM, 17 h, pH 6.4, 37 °C): 5.88 + 0.04
CN1CCN(C(=O)c2ccc(C3CCCCC3)cc2)CC1 — hepatic clearance (liver microsome stability; cynomolgus liver microsomes; 1 µM): 36 mL/min/kg
CC[C@@H]([C@H](C)O)n1ncn(-c2ccc(N3CCN(c4ccc(OC[C@@H]5CO[C@@](Cn6cncn6)(c6ccc(F)cc6F)C5)cc4)CC3)cc2)c1=O — stability relative error (rat plasma; 1600 ng/mL, 21 days, -80 °C; baseline: nominal concentration): -9.6%
CC(C)[C@H](NC(=O)[C@@H](NC(=O)CCCc1cn(CC(O)CN2CCN(CC(=O)O)CCN(CC(=O)O)CCN(CC(=O)O)CC2)nn1)[C@@H](C)O)C(=O)N[C@@H](CCCNC(=N)N)C(=O)N[C@H](C(=O)N[C@@H](CO)C(=O)N[C@@H](C)C(=O)N[C@@H](CC(=O)O)C(=O)O)[C@@H](C)O (some centres unmarked) — volume of distribution (healthy male humans, plasma; intravenous, 0.08 mmol/kg): 0.201 ± 0.021 L/kg
Cc1ncc(CO)c(C(=O)O)c1O — AUC(0-8h) (human, plasma; dose not given, baseline geometric mean): 0.212 µM·h
Cc1c(C(=O)O)ccc2c3n(nc12)[C@@H]1[C@H](C3)N(CC2CC2)[C@@]2(C(=O)Nc3cc(Cl)ccc32)[C@H]1c1cccc(Cl)c1F — plasma concentration (female BALB/c nude mice, SJSA-1 xenograft, plasma; oral, 2 mg/kg once daily, 7 h): 1270 nM
COc1cccc2c1C(=O)c1c(O)c3c(c(O)c1C2=O)C[C@@](O)(C(=O)CO)C[C@@H]3O[C@H]1C[C@H](NC(=O)[C@@H]2CCCN2C(=O)CN)[C@H](O)[C@H](C)O1 — AUC (healthy mouse, plasma; intravenous, 849.5 mg/kg PhAc-ALGP-Dox): 1.89 µM·h
O=Cc1cc2ccccc2cc1C=O — degradation rate constant (chemical stability, HPLC-MS; borate buffered saline; pH 10.2, no N-acetyl-lysine): 0.1 h⁻¹
CN1CCN(C(=O)c2ccc([C@H]3[C@@H](F)[C@@H](F)C[C@@H](F)[C@H]3F)cc2)CC1=O — hepatic clearance (hepatocyte stability; cryopreserved human hepatocytes; 1 µM): 6.2 mL/min/kg
Cl.[2H]C([2H])([2H])CC(=O)c1cnc(NC(=O)C2CC2)cc1Nc1cccc(-c2ncn(C([2H])([2H])[2H])n2)c1OC — Tmax (human, fed, multiple dose; oral, 30 mg twice daily, tablet, day 1, median): 2.09 h
CNC(=O)c1ccc(-c2cnc3ncc(Cc4ccc5ncccc5c4)n3n2)cc1F — subjects with adverse event (healthy human subjects; oral, 200 mg, Diarrhea, all grades, all causality, together with: itraconazole 200 mg/day): 11.1%
O=C([O-])CN1CCN(CC(=O)[O-])CCN([C@H](CO)[C@H](O)CO)CCN(CC(=O)[O-])CC1.[Gd+3] (racemic) — Gd concentration (ICP-MS; rat, femur epiphysis; intravenous, 0.6 mmol Gd/kg, 1 week): 1.2 nmol/g
O=C1NCCc2nc(OCc3cccc(F)c3)ccc21 — Irwin test score (refers to: loss of Placing; Sprague-Dawley rat male; oral, 100 mg/kg, 4 h; direction not given): 0
CNC(=O)c1ccc(-c2cnc3ncc(Cc4ccc5ncccc5c4)n3n2)cc1F — patients with adverse event (refers to: Pruritus, all grades; gastric cancer patients; oral, 600 mg twice daily, expansion cohort, any causality): 11%
Cc1cc(C)c(CNC(=O)c2cc(Cl)c3c(c2C)O[C@@](C)([C@H]2CC[C@H](N(C)C)CC2)O3)c(=O)[nH]1 — fu (ultracentrifugation; glycoprotein, alpha-1-acid, 0.1%; 10000 ng/mL, 160 min): 0.44
COc1ncc(-c2nc3c(n2C(C)C)[C@H](c2ccc(Cl)cc2)N(c2cc(Cl)cn(C)c2=O)C3=O)c(OC)n1 — median Tmax (human patients, plasma; oral, 150 mg): 2 h
CC(C)C[C@H](NC(=O)C[C@H](O)[C@H](CC(C)C)NC(=O)[C@H](Cc1c[nH]cn1)NC(=O)CNC(=O)[C@@H](NC(=O)[C@H](C)NC(=O)[C@H](Cc1c[nH]c2ccccc12)NC(=O)[C@H](CCC(N)=O)NC(=O)[C@@H](Cc1ccccc1)NC(=O)COCCOCCNC(=O)CCC(C(=O)O)N1CCN(CC(=O)O)CCN(CC(=O)O)CCN(CC(=O)O)CC1)C(C)C)C(N)=O (some centres unmarked) [lutetium-177 labelled] — tissue uptake (BALB/c nu/nu mice, female, PC-3 xenograft tumour; intravenous, 100 pmol, 24 h, together with: PA 300 µg): 3.7 ± 0.9 %ID/g
Cc1ccc([C@@H]2O[C@H](CO)[C@@H](O)[C@H](O)[C@H]2O)cc1Cc1ccc(-c2ccc(F)cc2)s1 — urinary potassium excretion change (Japanese type 2 diabetes patients; 25 mg, day 15, 24 h urine collection; baseline: baseline): 0.091 mEq
CC[C@@H]1[C@H](F)C(=O)N[C@@H]1COc1nccc2cc(C(N)=O)c(OC)cc12 — IC50 (MAP2K6 (Homo sapiens, UniProt P52564); ATP-site probe binding, ActivX profiling; THP-1 cell lysate; Lys2 site): 4 µM
CC(=O)N1CC(C(=O)Nc2ccc([C@H]3[C@@H](F)[C@@H](F)C[C@@H](F)[C@H]3F)cc2)C1 — hepatic clearance (liver microsome stability; mouse liver microsomes; 1 µM): 14 mL/min/kg
CN(C(=O)n1cnc(-c2ccc[n+]([O-])c2)c1)[C@H]1CC[C@H](O)CC1 — tissue concentration (rat, hippocampus; oral, 10 mg/kg daily for 5 days, 24 h): 13.3 ± 0.2 ng/g
COc1cc2nccc(Oc3ccc(NC(=O)c4cc5c(n(-c6ccccc6)c4=O)CCCC5=O)nc3)c2cc1OC — patients, with TEAEs, drug-related grade ≥3 (human, relapsed/refractory AML; oral, 3 mg once daily, CTCAE grading): 10%
CC(C)NCC(O)c1ccc(O)c(O)c1 (centres unmarked) — sarcomere length (ventricular cardiomyocytes, C57BL/6 mouse; dose not given, 0.104 s): 1.72 µm
